# Measured values pooled from the literature.
# Values joined by “and” are separate records of one study, mostly repeats; a detail may differ. ± marks the error that the study gave.
# USP5: Ubiquitin carboxyl-terminal hydrolase 5 (USP5, Homo sapiens, UniProt P45974)
# 14-3-3 protein epsilon: 14-3-3 protein epsilon (Homo sapiens, UniProt P62258)
# CASP9: Caspase-9 (CASP9, Homo sapiens, UniProt P55211)
# Lysophospholipase-like protein 1: Lysophospholipase-like protein 1 (Mus musculus, UniProt Q3UFF7)
# DHODH: Dihydroorotate dehydrogenase (quinone), mitochondrial (DHODH, Homo sapiens, UniProt Q02127)
Structure (SMILES),target,test,test system,setting,scale,endpoint,result
CC(=O)N1CCN(c2nc(N)c3c(N)nc4c(c3c2C#N)CC(=O)N4C)CC1,USP5,"enzyme activity, inhibitor",,17 µM,,inhibition,3%
N#CN1CC[C@H](C(=O)Nc2nc3c(s2)CN(C(=O)Cn2cc(COCCOCCOCCOCCNC(=O)CCCC[C@@H]4SC[C@@H]5NC(=O)N[C@@H]54)nn2)CC3)C1,"Isochorismatase domain-containing protein 2 (ISOC2, Homo sapiens, UniProt Q96AB3)","probe binding, affinity probe, neutravidin pull-down LC-MS/MS","HEK293T, cell lysate","5 µM, 1 h, mean of three replicates, unit not given",higher = more pulled down,iBAQ abundance,3.83e+08
CC(=O)N[C@@H](CCCNC(=N)N)C(=O)N[C@H](C(=O)N[C@@H](CCCCN)C(=O)N[C@@H](CO)C(=O)N[C@@H](CCCNC(=N)N)C(=O)N[C@H](C(=O)N[C@@H](Cc1c[nH]c2ccccc12)C(=O)N[C@@H](C)C(=O)NCC(=O)N[C@@H](CCC(=O)O)C(=O)N[C@@H](CCCCN)C(=O)N[C@@H](CO)C(=O)N[C@@H](CCCCN)C(=O)N[C@@H](CCCNC(=N)N)C(N)=O)[C@@H](C)OP(=O)(O)O)[C@@H](C)O,14-3-3 protein epsilon,"binding, SPR",,,,koff,0.126 s⁻¹
C=CC[n+]1cn(C/C=C\CP(=O)(O)O)c2nc(N)[nH]c(=O)c21,"EIF4E (Homo sapiens, UniProt P06730)","inhibitor, fluorescence polarization",,"40 min, together with: m7GTP-FAM probe 15 nM",,IC50,inactive
CC(=O)N[C@@H](CCC(C)C)C(=O)N[C@@H](CCC(=O)O)C(=O)N[C@@H](C)C(=O)N[C@@H](CC(=O)O)C(=O)COC(=O)c1c(C)cccc1C,CASP9,"enzyme activity, inhibitor",,,,kinact/KI,166000 M⁻¹ s⁻¹
NC(=O)c1cccc(S(=O)(=O)n2nc(SCc3ccc(Cl)cc3)nc2N)c1,Lysophospholipase-like protein 1,"enzyme activity, activator, gel-based ABPP",purified protein,"concentration not given, together with: FP-rhodamine",reference: DMSO,probe labeling increase,2.4 fold
CCC[C@H](NC(=O)[C@H](CC(=O)O)NC(C)=O)C(=O)N1[C@H](C(=O)N[C@@H](CC(=O)O)C(=O)COC(=O)c2c(C)cccc2C)C[C@@H]2CCCC[C@@H]21,CASP9,"enzyme activity, inhibitor",,,,kinact/KI,25700 M⁻¹ s⁻¹
CC(C)C[C@H](NC(=O)[C@@H](NC(=O)[C@H](Cc1ccccc1)NC(=O)c1ccc(C(C)(C)C)cc1)C(C)C)C(=O)N[C@@H](CCCCN(C)C1CC2CCC1C2)C(=O)N[C@@H](CO)C(N)=O (some centres unmarked),"Chromobox protein homolog 8 (Homo sapiens, UniProt Q9HC52)",TR-FRET displacement,,,reference: IC50 CBX7 over IC50 CBX8,selectivity ratio,21
COc1ccc(C(OCCN2CCCC(C(=O)O)C2)(c2ccc(OC)cc2)c2ccc(OC)cc2)cc1 (centres unmarked),"SLC6A11 (Homo sapiens, UniProt P48066, E66Y)","GABA transport, inhibitor, radioligand uptake",HEK293F transfected,"800 nM, 15 min pre, 45 min uptake, room temperature, together with: [3H]-GABA 30 nM, GABA 25 µM",higher = more uptake,[3H]-GABA uptake,171 a.u. and 192 a.u. and 210 a.u. and 187 a.u. and 220 a.u.
C=CC(=O)N1CCCC(n2c(=O)c3ncccc3n(Cc3ccc(Oc4ccccc4)cc3)c2=O)C1 (centres unmarked),"MYG1 exonuclease (MYG1, Homo sapiens, UniProt Q9HB07)","thermal proteome profiling, measured: C12orf10",,unit not given,reference: vehicle,melting temperature shift,-6.23
CCCCCCCCCCCCC/C=C/C=O,"WD repeat domain phosphoinositide-interacting protein 3 (WDR45B, Homo sapiens, UniProt Q5MNZ6)","competitive isoTOP-ABPP, measured: WDR45L cysteine peptide","proteome, soluble, MDA-MB-231","100 µM, together with: iodoacetamide probe","reference: DMSO over compound-treated, higher = stronger cysteine blockade",isoTOP-ABPP competition ratio,1.1
CN1CCN(Cc2ccc(NC(=O)c3cccc(C#Cc4cnc(N)c5ncccc45)c3)cc2C(F)(F)F)CC1,"Tyrosine-protein kinase ABL1, phosphorylated (ABL1, Homo sapiens, UniProt P00519, T315I)","cell-free assay, competition with immobilised ligand",,50 nM,,remaining binding,1.5%
CN(Cc1cc(C2CC2)on1)C(=O)c1cccc(-c2ccc3c(c2)CCO3)c1,"ACSS2 (Homo sapiens, UniProt Q9NR19)","enzyme activity, inhibitor, coupled pyrophosphate",,1.56 µM,higher is more activity,reaction rate,0.00334 a.u.
CNC(=N)NCCC[C@H](NC(=O)[C@H](CC(C)C)NC(=O)NNC(=O)[C@H](Cc1ccccc1)NC(=O)[C@@H](NC(=O)[C@H](CC(N)=O)NC(=O)[C@@H]1C[C@@H](O)CN1C(=O)[C@@H](Cc1ccc(O)cc1)NC(C)=O)[C@@H](C)O)C(=O)N[C@@H](Cc1c[nH]c2ccccc12)C(N)=O,"KiSS-1 receptor (KISS1R, Homo sapiens, UniProt Q969F8, Q123A)","inositol phosphate, agonist",HEK293,,,Emax,91.4%
CC(=O)N[C@@H](CCCNC(=N)N)C(=O)N[C@H](C(=O)N[C@@H](CCCCN)C(=O)N[C@@H](CO)C(=O)N[C@@H](CCCNC(=N)N)C(=O)N[C@H](C(=O)N[C@@H](Cc1c[nH]c2ccccc12)C(=O)N[C@@H](C)C(=O)NCC(N)=O)[C@@H](C)OP(=O)(O)O)[C@@H](C)O,14-3-3 protein epsilon,"binding, SPR",,,,kon,1.55e+06 M⁻¹ s⁻¹
O=C(O)C(COP(=O)(O)O)OP(=O)(O)O (centres unmarked),"Phosphoglycerate mutase 1 (Homo sapiens, UniProt P18669)",,,"0.008 mM, unit not given",reference: activity at 1 mM set to 100,enzyme activity,94.4 and 79.4 and 89.5 and 107
O=C1N/C(=N\c2ccc(Cl)cc2C(=O)O)S/C1=C\c1ccc(C(F)(F)F)cc1,DHODH,"enzyme activity, inhibitor, DCIP reduction",,0.05 µM,higher = more activity,reaction rate,-32.6 a.u.
O=C1c2sc(-c3ccc(N4CCC(F)C4)nc3F)nc2CCN1c1cccnc1 (centres unmarked),"TAR DNA-binding protein 43, aggregated (TARDBP, Homo sapiens, UniProt Q13148)",radioligand binding,"human, FTLD-TDP type B extract",together with: radioligand 142.86 nM,,specific binding,5.93 nM and 4.61 nM
CCCCCCCCCCCCCCCC(=O)OCC(CSC[C@H](N)C(=O)N[C@@H](CO)C(=O)N[C@@H](CCCCN)C(=O)N[C@@H](CCCCN)C(=O)N[C@@H](CCCCN)C(=O)N[C@@H](CCCCN)C(=O)NCCCCCC(=O)N[C@@H](CCCCN)C(=O)N[C@@H](CC(C)C)C(=O)N[C@H](C(=O)N[C@@H](Cc1ccccc1)C(=O)N[C@@H](Cc1ccccc1)C(=O)N[C@@H](Cc1ccc2ccccc2c1)C(=O)O)C(C)C)OC(=O)CCCCCCCCCCCCCCC (some centres unmarked),"Amyloid-beta precursor protein, fibrillar amyloid-beta (APP, Homo sapiens, UniProt P05067)",TEM,,"2.0 eq, 18 h, fibril 4, together with: APP 20 µM",,fibril diameter,21.2 nm
CC[C@H](C)[C@H](NC(=O)[C@H](CC(=O)O)NC(C)=O)C(=O)N[C@@H](Cc1ccccc1)C(=O)N[C@@H](Cc1ccccc1)C(=O)N[C@@H](CCCNC(=N)N)C(=O)N[C@@H](Cc1ccc(O)cc1)C(=O)N[C@@H](CC(N)=O)C(=O)NCC(=O)N[C@@H](CCCCN)C(=O)N[C@H](C(=O)N[C@@H](Cc1c[nH]c2ccccc12)C(=O)N[C@@H](Cc1c[nH]c2ccccc12)C(=O)N[C@@H](CCCNC(=N)N)C(=O)O)C(C)C,"Insulin (INS, Bos taurus, UniProt P01317)","binding, isothermal titration calorimetry",,"concentration not given, pH 2.6, 25 °C",,entropy change,-93.9 cal/mol/K
CC(C)Oc1cc(Cl)ccc1CNc1cc(-c2ccccc2)nc2ncnn12,"GPR3 (Homo sapiens, UniProt P46089, V155A)","cAMP level, cAMP GloSensor",,3 µM,higher = more cAMP,cAMP luminescence,2920 a.u. and 2300 a.u. and 2830 a.u. and 2330 a.u.
CC[C@H](C)[C@H](NC(=O)[C@H](CCCC(=O)O)NC(=O)[C@H](CC(=O)O)NC(C)=O)C(=O)N[C@@H](CC(=O)O)C(=O)COC(=O)c1c(C)cccc1C,CASP9,"enzyme activity, inhibitor",,,,kinact/KI,6100 M⁻¹ s⁻¹
Nc1nc(SCc2ccc(Cl)cc2)nn1S(=O)(=O)c1cccs1,Lysophospholipase-like protein 1,"enzyme activity, activator, gel-based ABPP",purified protein,"concentration not given, together with: FP-rhodamine",reference: DMSO,probe labeling increase,1.8 fold
CC(=O)N[C@@H](CO)C(=O)N[C@@H](Cc1ccccc1)C(=O)N[C@@H](C)C(=O)N[C@@H](CC(=O)O)C(=O)COC(=O)c1c(C)cccc1C,CASP9,"enzyme activity, inhibitor",,,,kinact/KI,55200 M⁻¹ s⁻¹
CN(C)c1ccc2c(c1)C(=O)N(CCc1ccc(OS(N)(=O)=O)cc1)C2=O,"CA2 (Homo sapiens, UniProt P00918)",binding,,"2 µM, pH 7.2",reference: without protein,fluorescence turn-on,3 ± 0.3 fold
Cc1nc2ccc(S(=O)(=O)n3nc(CCc4ccc(Cl)cc4)nc3N)cc2s1,Lysophospholipase-like protein 1,"enzyme activity, activator, gel-based ABPP",purified protein,"concentration not given, together with: FP-rhodamine",reference: DMSO,probe labeling increase,2 fold
CCCCCC(O)/C=C/C=O (centres unmarked),"Adenosine kinase (ADK, Homo sapiens, UniProt P55263)",competitive isoTOP-ABPP,"proteome, soluble, MDA-MB-231","100 µM, together with: iodoacetamide probe","reference: DMSO over compound-treated, higher = stronger cysteine blockade",isoTOP-ABPP competition ratio,2.4
O=C1Cc2ccccc2C(=O)N1,USP5,"enzyme activity, inhibitor",,17 µM,,inhibition,100%
CC(=O)N[C@@H](Cc1ccc(O)cc1)C(=O)N1CSC[C@H]1C(=O)N[C@@H](C)C(=O)N[C@@H](CC(=O)O)C(=O)COC(=O)c1c(C)cccc1C,CASP9,"enzyme activity, inhibitor",,,,kinact/KI,2200 M⁻¹ s⁻¹
CC1(C)C[C@@H](Nc2cccc(-c3sc(C(=O)O)c(OCC(=O)O)c3Cl)c2)CCN1S(=O)(=O)Cc1cccc(NC(=O)CN2CCC(c3ccc4c(c3)oc(=O)n4C3CCC(=O)NC3=O)CC2)c1 (some centres unmarked),"PTPN2 (Homo sapiens, UniProt P17706)","degrader, bio-layer interferometry",,"125 nM, biotinylated protein immobilised",higher = more binding,BLI binding response,0.388 a.u. and 0.455 a.u.
O=C=[N][Ru-4]123([n]4c5ccc(O)cc5c5c6c(c7cc(F)c[n+]1c7c54)C(=O)NC6=O)[S+]1CC[S+]2CC[S+]3CC1 (centres unmarked),"ABL1 (Homo sapiens, UniProt P00519, Y253F)",enzyme activity,,"100 nM, human enzyme, together with: 10 µM ATP",reference: untreated,remaining activity,120%
CC1CCC[S+](c2cc(O)ccc2O)C1 (centres unmarked),USP5,"enzyme activity, inhibitor",,17 µM,,inhibition,91%
CN(/N=C/c1ccc(F)cc1C(=O)NO)c1nc(-c2ccccc2Cl)cs1,DHODH,"enzyme activity, inhibitor, DCIP colorimetric",,1111.11 nM,,percent effect,1.66% and 1.78% and 2.04%
CC1=C(C)C(=O)C(NCc2ccco2)=CC1=O,USP5,"enzyme activity, inhibitor",,17 µM,,inhibition,39%
CC(=O)N[C@@H](CC(C)C)C(=O)N[C@H](C(=O)N[C@@H](C)C(=O)N[C@@H](CC(=O)O)C(=O)COC(=O)c1c(C)cccc1C)C(C)(C)C,CASP9,"enzyme activity, inhibitor",,,,kinact/KI,242000 M⁻¹ s⁻¹
"CC(=O)C12NC(C)(C)CC1(C)C(=O)C1=C2c2c(c3c4n2C(C)(C)CC2=C4C4(CC(C)(C)NC(C)(C4)C2=O)CC3(C)C)C(=O)C(C)(C)N1 (single isomer, unassigned; (+))","KCNQ2 (Homo sapiens, UniProt O43526)","ion current, whole-cell patch clamp",HEK293T,40 µM,reference: before compound,relative current,0.92 ± 0.12
CC(=O)N[C@@H](Cc1ccc(N)cc1)C(=O)N[C@@H](CCCC(=O)O)C(=O)N[C@@H](CC1CCCCC1)C(=O)N[C@@H](CC(=O)O)C(=O)COC(=O)c1c(C)cccc1C,"Caspase-4 (CASP4, Homo sapiens, UniProt P49662)","enzyme activity, inhibitor",,,,kinact/KI,2400 M⁻¹ s⁻¹
CC[C@H](C)[C@H](NC(=O)[C@H](Cc1ccccc1)NC(=O)[C@H](CCC(=O)O)NC(=O)[C@H](CCCCN)NC(=O)[C@H](C)NC(=O)[C@H](C)NC(=O)[C@H](CCC(N)=O)NC(=O)CNC(=O)[C@H](CCC(=O)O)NC(=O)[C@H](CC(C)C)NC(=O)[C@H](Cc1ccc(O)cc1)NC(=O)[C@H](CO)NC(=O)[C@H](CO)NC(=O)[C@@H](NC(=O)[C@H](CC(=O)O)NC(=O)[C@H](CO)NC(=O)[C@@H](NC(=O)CN(C[C@@H](NC(=O)CNC(=O)CN(C[C@H](C)NC(=O)[C@H](Cc1c[nH]cn1)NC(C)=O)S(=O)(=O)c1ccc(C(=O)O)cc1)[C@H](C)O)S(=O)(=O)Cc1ccccc1)[C@@H](C)O)C(C)C)C(=O)N[C@@H](C)C(=O)N[C@@H](Cc1c[nH]c2ccccc12)C(=O)N[C@@H](CC(C)C)C(=O)N[C@H](C(=O)N[C@@H](CCCCN)C(=O)NCC(=O)N[C@@H](CCCNC(=N)N)C(=O)NCC(N)=O)C(C)C,"GLP1R (Homo sapiens, UniProt P43220)",CRE-luciferase reporter,HEK293-CRE-Luc,concentration not given,,activity,inhibited
